Experimental data pooled from the literature.
Each line is one published result; not all experiments were run side by side. Values joined by “and” are separate records of one study, mostly repeats; a detail may differ. Numbers after ± are the reported error.

CCCC(C(=O)c1ccc(O)c(O)c1)N1CCCC1 (centres unmarked)
plasma concentration (LC-MS/MS; rat, trunk blood plasma; subcutaneous, 4 mg/kg MDPV, 40 min): 108 ± 14.4 ng/mL

C[C@H]1C[C@@H](N2C(=N)N[C@](C)(c3cccc(NC(=O)c4cccc(C#N)c4)c3Cl)CC2=O)CCO1
plasma concentration (Wistar Han rat male; 1000 mg/kg, 24 h, day 7): 928 to 8370 ng/mL

C1=Cc2nc1cc1ccc([n-]1)c(-c1ccccc1)c1nc(cc3ccc([n-]3)c2-c2ccccc2)C=C1.CC(=O)[O-].[Mn+3]
plasma concentration (LC-MS/MS; Sprague-Dawley rat, plasma; oral gavage, dose not given, 30 min, individual rat Rat1): 20 ng/mL

C[C@H]1COCCN1c1nc(NCc2cccnc2C(F)(F)F)c2cccnc2n1
plasma concentration (conscious rat, plasma; intravenous, 30 mg/kg, 5 min): 139000 ng/mL

CCCC(C(=O)c1ccc(O)c(OC)c1)N1CCCC1 (centres unmarked)
plasma concentration (LC-MS/MS; rat, trunk blood plasma; subcutaneous, 4 mg/kg MDPV, 40 min): 99 ± 12.5 ng/mL

O=C(NCCCN1CCCCC1)c1cc(Sc2ccc(Cl)cc2)nc2ccccc12
cytotoxicity efficacy (Vero-E6; CellTiter-Glo ATP; concentration not given, 72 h, second round 5-point; baseline: DMSO 0%, hyamine -100%, more negative, more toxic): -16.7%

CCCC(C(=O)c1ccc2c(c1)OCO2)N1CCCC1.Cl (racemic)
plasma concentration (LC-MS/MS; rat, trunk blood plasma; subcutaneous, 1 mg/kg, 40 min): 130 ng/mL

N=C(N)NCCNC(=O)C1(Nc2ccccc2)CCN(Cc2ccccc2)CC1
plasma stability (rat, plasma; 5 h, room temperature): stable

CCc1ccc(Sc2cc(C(=O)NCCCN3CCC(C)CC3)c3ccccc3n2)cc1
cytotoxicity efficacy (Vero-E6; CellTiter-Glo ATP; concentration not given, 72 h, first round 5-point; baseline: DMSO 0%, hyamine -100%, more negative, more toxic): -18.6%

O=C(N/N=C/c1ccccc1O)c1ccncc1
plasma level of active form (male Wistar Han rats, plasma; intravenous, 10 mg/kg, 1 to 300 min): not detected

C1=Cc2nc1cc1ccc([n-]1)c(C1CC1)c1nc(cc3ccc([n-]3)c2C2CC2)C=C1.CC(=O)[O-].[Mn+3]
plasma concentration (LC-MS/MS; Sprague-Dawley rat, plasma; oral gavage, dose not given, 360 min): 129 ng/mL and 502 ng/mL
